# Results of several laboratories.
# Numbered parts are unrelated; each lists some results of a single study.
# Sequence of UniProt Q9C0B0 (30-357, looked up): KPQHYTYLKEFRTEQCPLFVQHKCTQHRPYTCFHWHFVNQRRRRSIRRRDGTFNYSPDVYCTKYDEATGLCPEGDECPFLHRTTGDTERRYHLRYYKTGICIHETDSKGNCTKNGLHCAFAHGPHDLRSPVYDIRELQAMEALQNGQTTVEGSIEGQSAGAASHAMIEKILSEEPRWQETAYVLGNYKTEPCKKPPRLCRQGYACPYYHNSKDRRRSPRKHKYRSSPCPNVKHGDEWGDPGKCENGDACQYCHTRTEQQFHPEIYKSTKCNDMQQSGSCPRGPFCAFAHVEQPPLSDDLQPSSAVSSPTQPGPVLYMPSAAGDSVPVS

# Sample 1
# Target: Histone acetyltransferase KAT6A, winged helix 1, GST fusion (KAT6A, Homo sapiens, UniProt Q92794, residues 1-85)
# Method: protein binding microarray
# Molecule type: double-stranded DNA, one strand shown
# Matrix: in vitro
# Tested at: not given
# Notes: 8-mer, flanks averaged, mean of 2 arrays, mostly near background
# Reference: not given
# Reading: higher = stronger binding
# Residues (chain): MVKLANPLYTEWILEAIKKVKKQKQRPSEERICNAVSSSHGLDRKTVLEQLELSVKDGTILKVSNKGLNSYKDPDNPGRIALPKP
Oligonucleotide,E-score
TATAAAAA,-0.141
TACCCCTA,-0.244
CCAGCAAC,-0.16

# Sample 2
# Target: Sal-like protein 4, full length isoform A (SALL4, Homo sapiens, UniProt Q9UJQ4, residues 1-1053)
# Sequence of UniProt Q9UJQ4 (whole entry, looked up): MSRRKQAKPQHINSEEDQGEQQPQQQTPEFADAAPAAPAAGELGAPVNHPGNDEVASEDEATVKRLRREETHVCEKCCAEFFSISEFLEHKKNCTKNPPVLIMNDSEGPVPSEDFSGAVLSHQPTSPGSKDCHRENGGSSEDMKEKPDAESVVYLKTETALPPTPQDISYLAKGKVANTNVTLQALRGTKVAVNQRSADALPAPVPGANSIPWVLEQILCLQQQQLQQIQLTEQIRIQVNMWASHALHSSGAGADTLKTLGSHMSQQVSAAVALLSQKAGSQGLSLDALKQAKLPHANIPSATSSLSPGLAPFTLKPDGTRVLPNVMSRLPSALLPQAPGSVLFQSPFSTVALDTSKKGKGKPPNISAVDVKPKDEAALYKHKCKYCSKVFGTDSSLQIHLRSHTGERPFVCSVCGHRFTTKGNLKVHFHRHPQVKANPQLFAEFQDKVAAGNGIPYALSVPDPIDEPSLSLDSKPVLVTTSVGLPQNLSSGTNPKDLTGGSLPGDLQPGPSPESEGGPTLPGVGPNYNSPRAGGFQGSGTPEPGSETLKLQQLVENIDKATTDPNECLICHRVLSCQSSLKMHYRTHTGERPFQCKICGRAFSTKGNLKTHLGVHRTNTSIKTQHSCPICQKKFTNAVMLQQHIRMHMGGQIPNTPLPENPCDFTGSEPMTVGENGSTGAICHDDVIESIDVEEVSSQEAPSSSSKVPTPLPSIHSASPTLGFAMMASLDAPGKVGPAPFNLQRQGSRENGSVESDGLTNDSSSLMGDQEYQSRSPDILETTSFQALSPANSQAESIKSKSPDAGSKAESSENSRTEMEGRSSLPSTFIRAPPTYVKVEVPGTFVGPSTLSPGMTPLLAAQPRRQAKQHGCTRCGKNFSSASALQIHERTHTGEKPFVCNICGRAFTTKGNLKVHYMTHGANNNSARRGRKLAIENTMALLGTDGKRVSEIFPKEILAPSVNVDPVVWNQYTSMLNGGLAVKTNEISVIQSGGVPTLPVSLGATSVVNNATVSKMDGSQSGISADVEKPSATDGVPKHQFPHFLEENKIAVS
# Method: universal PBM
# Molecule type: double-stranded DNA, one strand shown
# Matrix: in vitro
# Tested at: 600 nM
# Notes: 8-mer, flanks averaged, mean of replicates
# Reading: higher = stronger binding
Oligonucleotide,E-score
AAGTGAAT,0.19
CGCTAGCA,-0.156
TACTTAGA,0.117

# Single results of other studies
Substance,target,test,system,conditions,scale,measurement,value
GGGAGUUCUACAGUCCGACGAUCCUAGUUCACAACUGACUGGUUCACAGCAUUCCUUACAGAGUUAUCUAUCAAAUGCAAGUGUAGUUAAUUUUCAGGAAACAACCAGGCAGUCAUCUUUAUCCUGUAGCCCAACUGGAGAUUCAACAGAGGAUUGAGCAUCA,"RING finger protein unkempt homolog, zinc fingers 1-6, SBP tag (UNK, Homo sapiens, UniProt Q9C0B0, residues 30-357)",RNA Bind-n-Seq,"RNA, in vitro","100 nM, RNA with constant flanks, vertebrate orthologous sites, ends assumed","reference: input RNA pool, higher = stronger binding",bound/input enrichment,0.962 ratio
"PhoQ, residues 284 288 289 292 302 303 SSTLLI","PhoP, residues 12 14 15 18 19 NYFTV (Escherichia coli, UniProt P23836)","Sort-seq, item: YFP reporter",E. coli,"PhoQ-PhoP variant library, added: 10 µM Mg2+","reference: high Mg2+ state, higher = stronger signaling",fold induction,10.9

# A few entries again (single results of other studies):
Substance,target,test,system,conditions,scale,measurement,value
GGGAGUUCUACAGUCCGACGAUCCUAGUUCACAACUGACUGGUUCACAGCAUUCCUUACAGAGUUAUCUAUCAAAUGCAAGUGUAGUUAAUUUUCAGGAAACAACCAGGCAGUCAUCUUUAUCCUGUAGCCCAACUGGAGAUUCAACAGAGGAUUGAGCAUCA,"RING finger protein unkempt homolog, zinc fingers 1-6, SBP tag (UNK, Homo sapiens, UniProt Q9C0B0, residues 30-357)",RNA Bind-n-Seq,"RNA, in vitro","100 nM, RNA with constant flanks, vertebrate orthologous sites, ends assumed","reference: input RNA pool, higher = stronger binding",bound/input enrichment,0.962 ratio
